Results from different studies.
Numbered parts are unrelated; each lists some results of a single study. Several values in a cell are separate wells, animals, samples, runs or records.
Sequence of UniProt Q8N4C8 (whole entry, looked up): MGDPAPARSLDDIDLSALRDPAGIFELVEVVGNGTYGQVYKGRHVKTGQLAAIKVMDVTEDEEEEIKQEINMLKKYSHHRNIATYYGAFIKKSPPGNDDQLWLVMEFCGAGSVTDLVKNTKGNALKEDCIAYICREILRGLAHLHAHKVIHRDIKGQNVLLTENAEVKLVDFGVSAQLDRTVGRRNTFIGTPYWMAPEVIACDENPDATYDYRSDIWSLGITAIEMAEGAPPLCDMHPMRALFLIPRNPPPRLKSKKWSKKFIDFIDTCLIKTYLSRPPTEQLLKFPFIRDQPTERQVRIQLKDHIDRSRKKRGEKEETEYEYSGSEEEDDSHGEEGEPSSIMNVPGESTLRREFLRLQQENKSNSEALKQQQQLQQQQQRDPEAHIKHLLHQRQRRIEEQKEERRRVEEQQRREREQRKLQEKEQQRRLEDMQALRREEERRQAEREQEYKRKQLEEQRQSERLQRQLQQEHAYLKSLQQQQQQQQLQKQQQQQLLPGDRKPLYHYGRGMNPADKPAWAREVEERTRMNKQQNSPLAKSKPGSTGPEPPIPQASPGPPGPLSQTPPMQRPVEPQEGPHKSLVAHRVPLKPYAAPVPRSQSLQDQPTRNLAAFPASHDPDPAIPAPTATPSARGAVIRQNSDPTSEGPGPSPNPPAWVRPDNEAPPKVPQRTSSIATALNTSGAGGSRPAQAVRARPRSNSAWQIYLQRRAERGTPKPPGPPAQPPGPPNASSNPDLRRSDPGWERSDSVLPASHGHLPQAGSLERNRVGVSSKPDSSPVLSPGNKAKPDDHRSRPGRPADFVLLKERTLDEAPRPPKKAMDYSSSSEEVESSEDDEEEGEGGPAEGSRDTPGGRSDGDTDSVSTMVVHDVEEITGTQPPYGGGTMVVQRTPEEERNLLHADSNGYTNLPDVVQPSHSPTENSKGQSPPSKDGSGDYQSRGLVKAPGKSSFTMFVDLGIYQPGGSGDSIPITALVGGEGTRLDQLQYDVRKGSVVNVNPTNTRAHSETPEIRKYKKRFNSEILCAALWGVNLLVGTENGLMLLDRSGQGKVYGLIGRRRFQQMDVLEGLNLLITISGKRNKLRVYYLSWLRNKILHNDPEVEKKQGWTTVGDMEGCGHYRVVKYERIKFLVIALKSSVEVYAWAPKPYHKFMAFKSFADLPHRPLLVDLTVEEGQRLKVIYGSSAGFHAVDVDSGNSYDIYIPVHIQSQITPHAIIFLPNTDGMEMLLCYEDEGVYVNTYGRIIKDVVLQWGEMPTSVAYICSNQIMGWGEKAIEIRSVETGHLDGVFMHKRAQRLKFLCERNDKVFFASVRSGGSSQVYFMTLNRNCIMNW

Sample 1 — observed: enzyme activity; action: inhibitor; tested at: 0.5 µM; reference: control; endpoint: remaining activity
Structure (SMILES): COC[C@H]1OC(=O)c2coc3c2[C@@]1(C)C1=C(C3=O)[C@@H]2CCC(=O)[C@@]2(C)C[C@H]1OC(C)=O
Ribosomal protein S6 kinase alpha-4 (RPS6KA4, Homo sapiens, UniProt O75676): 96.7%
Dual specificity protein kinase CLK3 (CLK3, Homo sapiens, UniProt P49761): 97.5%
Mitogen-activated protein kinase 1 (MAPK1, Homo sapiens, UniProt P28482): 101%
Tyrosine-protein kinase TXK (TXK, Homo sapiens, UniProt P42681): 99%
Cyclin-dependent kinase 9, with cyclin K (CDK9, Homo sapiens, UniProt P50750): 107%
Serine/threonine-protein kinase MRCK beta (CDC42BPB, Homo sapiens, UniProt Q9Y5S2): 112%
Misshapen-like kinase 1 (MINK1, Homo sapiens, UniProt Q8N4C8): 91.2%
Serine/threonine-protein kinase DCLK2 (DCLK2, Homo sapiens, UniProt Q8N568): 96.7%
Serine/threonine-protein kinase PLK3 (PLK3, Homo sapiens, UniProt Q9H4B4): 14.4%
Calcium/calmodulin-dependent protein kinase type 1B (PNCK, Homo sapiens, UniProt Q6P2M8): 98.2%
Serine/threonine-protein kinase MARK2 (MARK2, Homo sapiens, UniProt Q7KZI7): 93%
Calcium/calmodulin-dependent protein kinase type IV (CAMK4, Homo sapiens, UniProt Q16566): 98.5%
Mitogen-activated protein kinase 11 (MAPK11, Homo sapiens, UniProt Q15759): 91.6%
Serine/threonine-protein kinase PAK 3 (PAK3, Homo sapiens, UniProt O75914): 91.4%
MAP/microtubule affinity-regulating kinase 4 (MARK4, Homo sapiens, UniProt Q96L34): 102%

Sample 2 — action: inhibitor; tested at: concentration not given; with: without ssDNA; endpoint: remaining activity
Target: DNA polymerase theta, helicase domain (POLQ, Homo sapiens, UniProt O75417)
Sequence of UniProt O75417 (whole entry, looked up): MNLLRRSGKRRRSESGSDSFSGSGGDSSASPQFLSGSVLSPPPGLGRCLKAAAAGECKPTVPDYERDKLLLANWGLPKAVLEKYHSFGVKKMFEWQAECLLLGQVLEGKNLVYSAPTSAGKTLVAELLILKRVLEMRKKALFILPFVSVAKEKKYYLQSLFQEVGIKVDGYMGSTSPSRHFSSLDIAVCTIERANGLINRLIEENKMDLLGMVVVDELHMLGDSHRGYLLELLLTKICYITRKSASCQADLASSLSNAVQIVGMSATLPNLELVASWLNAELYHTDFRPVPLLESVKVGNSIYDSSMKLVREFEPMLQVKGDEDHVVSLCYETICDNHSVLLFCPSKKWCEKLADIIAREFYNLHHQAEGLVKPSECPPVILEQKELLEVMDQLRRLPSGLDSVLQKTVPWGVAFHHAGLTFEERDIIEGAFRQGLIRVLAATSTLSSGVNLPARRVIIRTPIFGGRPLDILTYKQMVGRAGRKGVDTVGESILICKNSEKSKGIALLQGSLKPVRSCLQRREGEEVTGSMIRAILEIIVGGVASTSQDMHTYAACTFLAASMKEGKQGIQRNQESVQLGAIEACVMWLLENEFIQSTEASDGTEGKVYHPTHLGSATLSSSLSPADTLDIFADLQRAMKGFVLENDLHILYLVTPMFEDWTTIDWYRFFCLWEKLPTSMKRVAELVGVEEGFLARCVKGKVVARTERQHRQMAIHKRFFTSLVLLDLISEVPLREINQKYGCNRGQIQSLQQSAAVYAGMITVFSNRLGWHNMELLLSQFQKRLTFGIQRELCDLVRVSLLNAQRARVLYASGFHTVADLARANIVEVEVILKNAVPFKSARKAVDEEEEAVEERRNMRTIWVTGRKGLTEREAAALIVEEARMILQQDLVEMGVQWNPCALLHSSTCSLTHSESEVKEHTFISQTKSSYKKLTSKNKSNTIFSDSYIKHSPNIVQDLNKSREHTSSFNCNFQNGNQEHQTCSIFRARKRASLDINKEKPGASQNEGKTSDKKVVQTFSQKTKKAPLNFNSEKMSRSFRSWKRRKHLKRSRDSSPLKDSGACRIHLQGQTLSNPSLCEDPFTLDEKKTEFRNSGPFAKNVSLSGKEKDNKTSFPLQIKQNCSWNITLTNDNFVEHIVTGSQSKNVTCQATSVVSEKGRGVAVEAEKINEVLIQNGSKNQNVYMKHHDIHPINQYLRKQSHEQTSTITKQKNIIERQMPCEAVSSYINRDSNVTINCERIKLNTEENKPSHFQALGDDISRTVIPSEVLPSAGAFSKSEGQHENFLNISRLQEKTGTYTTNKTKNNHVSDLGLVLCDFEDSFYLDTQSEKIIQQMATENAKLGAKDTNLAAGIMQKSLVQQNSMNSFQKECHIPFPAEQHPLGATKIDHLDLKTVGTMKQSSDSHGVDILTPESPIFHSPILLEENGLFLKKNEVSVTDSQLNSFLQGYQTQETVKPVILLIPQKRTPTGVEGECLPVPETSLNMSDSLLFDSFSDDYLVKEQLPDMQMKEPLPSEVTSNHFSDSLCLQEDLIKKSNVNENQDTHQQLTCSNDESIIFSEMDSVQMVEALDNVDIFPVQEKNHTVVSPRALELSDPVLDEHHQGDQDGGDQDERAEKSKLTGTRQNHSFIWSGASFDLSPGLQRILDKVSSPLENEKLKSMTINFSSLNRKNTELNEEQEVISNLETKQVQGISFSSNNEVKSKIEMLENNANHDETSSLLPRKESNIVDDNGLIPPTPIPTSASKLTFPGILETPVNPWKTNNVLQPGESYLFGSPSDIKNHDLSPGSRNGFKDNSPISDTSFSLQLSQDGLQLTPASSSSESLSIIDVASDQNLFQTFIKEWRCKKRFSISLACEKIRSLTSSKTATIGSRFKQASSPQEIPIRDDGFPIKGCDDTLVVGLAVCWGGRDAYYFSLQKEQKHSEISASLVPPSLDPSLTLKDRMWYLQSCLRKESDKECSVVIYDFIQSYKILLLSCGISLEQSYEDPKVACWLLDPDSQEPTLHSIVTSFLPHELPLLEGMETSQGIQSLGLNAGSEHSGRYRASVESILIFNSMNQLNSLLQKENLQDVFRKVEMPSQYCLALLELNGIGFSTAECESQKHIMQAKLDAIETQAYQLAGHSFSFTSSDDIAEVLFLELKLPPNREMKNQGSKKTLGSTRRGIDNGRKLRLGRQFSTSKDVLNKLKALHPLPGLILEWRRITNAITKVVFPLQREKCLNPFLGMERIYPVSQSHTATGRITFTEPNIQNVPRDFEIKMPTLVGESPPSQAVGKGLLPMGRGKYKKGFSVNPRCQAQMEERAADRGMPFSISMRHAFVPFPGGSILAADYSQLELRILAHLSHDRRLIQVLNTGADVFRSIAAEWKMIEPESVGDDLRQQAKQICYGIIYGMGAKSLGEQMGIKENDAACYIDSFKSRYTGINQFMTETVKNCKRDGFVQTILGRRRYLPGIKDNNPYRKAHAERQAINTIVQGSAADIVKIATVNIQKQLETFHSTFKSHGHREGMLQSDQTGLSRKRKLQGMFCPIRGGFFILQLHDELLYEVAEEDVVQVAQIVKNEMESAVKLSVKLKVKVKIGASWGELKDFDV
COc1cc(C(c2c(O)c3ccccc3oc2=O)c2c(C)n(C)n(-c3ccccc3)c2=O)ccc1OCC(=O)O (stereo not drawn): 75.9% and 78.2%
CN(N=O)c1ccc(O)c(O)c1: 95.6% and 94.1%
CSc1ccc(C(c2c(O)c3ccccc3oc2=O)c2c(C)n(C)n(-c3ccccc3)c2=O)cc1 (stereo not drawn): 107% and 105%
CCN(CC)C(=O)c1ccc2c(c1)N(Cc1ccc(C(F)(F)F)cc1)C(=O)c1ccccc1S2: 28.9% and 31.6%

Sample 3 — species: mouse; matrix: microsomes or S9; tested at: 2 µM; time: 0.5 h; endpoint: remaining compound
Cc1nn(C)c2ncnc(N3CCN4CCCC4C3)c12 (stereo not drawn): 38.6%
Cn1nc(-c2cccc3c2CCNC3)c2c(Cl)cccc21: 70.4%
COc1ccc2c(c1)C1(CCN(C(=O)c3ccc(C#N)cc3)C1)C(=O)N2 (stereo not drawn): 45%
CC(C)NC(=O)c1cc(Cl)cc(Cl)c1NC(=O)c1cc(OCC(=O)C(C)(C)C)nn1-c1ncccc1Cl: 63.1%
Cc1cc(Br)c2[nH]cc(CCN)c2c1: 43.3%

Sample 4 — observed: enzyme activity; action: inhibitor; tested at: 10 µM; endpoint: inhibition
Target: Calcium/calmodulin-dependent protein kinase type II subunit alpha (CAMK2A, Homo sapiens, UniProt Q9UQM7)
Sequence of UniProt Q9UQM7 (whole entry, looked up): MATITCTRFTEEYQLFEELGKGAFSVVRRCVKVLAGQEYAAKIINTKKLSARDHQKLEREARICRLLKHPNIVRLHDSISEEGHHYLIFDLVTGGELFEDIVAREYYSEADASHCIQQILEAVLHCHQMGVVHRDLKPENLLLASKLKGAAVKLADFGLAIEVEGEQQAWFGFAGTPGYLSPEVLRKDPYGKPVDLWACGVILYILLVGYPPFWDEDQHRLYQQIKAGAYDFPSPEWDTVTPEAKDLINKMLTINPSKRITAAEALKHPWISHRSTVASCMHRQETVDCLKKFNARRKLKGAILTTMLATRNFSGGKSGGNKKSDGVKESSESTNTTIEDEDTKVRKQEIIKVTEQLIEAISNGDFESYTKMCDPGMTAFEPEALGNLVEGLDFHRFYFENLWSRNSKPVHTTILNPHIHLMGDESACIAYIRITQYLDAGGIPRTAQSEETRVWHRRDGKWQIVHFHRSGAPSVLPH
C[C@@H]1C(=O)O[C@H]2[C@H](O)[C@]34[C@@H]5OC(=O)[C@]3(O[C@@H]3OC(=O)[C@H](O)[C@@]34[C@H](C(C)(C)C)[C@H]5O)[C@@]12O: -8%
CC1=C(C)C(=O)C(CC[C@](C)(O)CCC[C@H](C)CCC[C@H](C)CCCC(C)C)=C(C)C1=O: -24%
CC(C)C[C@H]1C(=O)O[C@H](Cc2ccccc2)C(=O)N(C)[C@@H](CC(C)C)C(=O)O[C@H](C)C(=O)N(C)[C@@H](CC(C)C)C(=O)O[C@H](Cc2ccccc2)C(=O)N(C)[C@@H](CC(C)C)C(=O)O[C@H](C)C(=O)N1C: -12%
C[Se]C[C@H](N)C(=O)O: 1%

Single results of other studies
pknB: Serine/threonine-protein kinase PknB (pknB, Mycobacterium tuberculosis, UniProt P9WI81)
Sequence of UniProt P9WI81 (whole entry, looked up): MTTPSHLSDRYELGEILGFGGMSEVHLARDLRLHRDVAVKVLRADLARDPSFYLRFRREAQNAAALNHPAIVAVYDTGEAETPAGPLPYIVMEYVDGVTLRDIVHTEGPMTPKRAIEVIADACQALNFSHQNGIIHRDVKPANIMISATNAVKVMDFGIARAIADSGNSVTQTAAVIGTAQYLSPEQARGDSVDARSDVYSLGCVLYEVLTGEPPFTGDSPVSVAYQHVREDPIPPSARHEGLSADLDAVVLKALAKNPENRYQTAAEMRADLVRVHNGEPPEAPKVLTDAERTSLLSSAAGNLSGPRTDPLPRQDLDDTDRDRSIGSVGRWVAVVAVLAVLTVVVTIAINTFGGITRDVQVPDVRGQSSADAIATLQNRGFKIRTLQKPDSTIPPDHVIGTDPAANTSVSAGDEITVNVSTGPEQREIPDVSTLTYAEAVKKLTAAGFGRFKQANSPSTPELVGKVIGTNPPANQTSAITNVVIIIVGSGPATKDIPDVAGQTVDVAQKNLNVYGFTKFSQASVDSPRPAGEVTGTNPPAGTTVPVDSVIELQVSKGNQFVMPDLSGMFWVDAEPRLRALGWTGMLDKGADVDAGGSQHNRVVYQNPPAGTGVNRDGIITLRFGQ
CN(C)C(=O)Cn1cc(-c2nc([C@@](C)(c3ccc(-c4cnc(N)nc4)cc3)C3CC3)no2)cn1  remaining binding (Cyclin-dependent kinase 2 homolog (CRK2, Plasmodium falciparum, UniProt P61075); cell-free assay, competition with immobilised ligand; 1 µM): 0%
CO[C@@H]1[C@H](N(C)C(=O)c2ccccc2)C[C@H]2O[C@]1(C)n1c3ccccc3c3c4c(c5c6ccccc6n2c5c31)C(=O)NC4  inhibition (pknB; enzyme activity, inhibitor; 1 µM): 0%
O=C(NC[C@@H]1[C@H]2CN(C(=O)OCc3cc(C(F)(F)F)cc(C(F)(F)F)c3)C[C@@H]12)c1ccc2[nH]nnc2c1  remaining binding (pknB; cell-free assay, competition with immobilised ligand; 1 µM): 80%
CNC(=O)c1cc(C(=O)NC2CC2)cn(Cc2ccccc2)c1=O  inhibition (Alpha-1B adrenergic receptor (ADRA1B, Homo sapiens, UniProt P35368); binding, radioligand binding; 10 µM): 7.27%
O=C(Nc1ccc(Oc2ccc(F)cc2)cc1)N1CCc2ncccc2[C@H]1c1ccc(F)cc1  remaining binding (pknB; cell-free assay, competition with immobilised ligand; 1 µM): 86%

For quick reference, copied from above (sample 4):
CC1=C(C)C(=O)C(CC[C@](C)(O)CCC[C@H](C)CCC[C@H](C)CCCC(C)C)=C(C)C1=O: -24%
CC(C)C[C@H]1C(=O)O[C@H](Cc2ccccc2)C(=O)N(C)[C@@H](CC(C)C)C(=O)O[C@H](C)C(=O)N(C)[C@@H](CC(C)C)C(=O)O[C@H](Cc2ccccc2)C(=O)N(C)[C@@H](CC(C)C)C(=O)O[C@H](C)C(=O)N1C: -12%
